Measured values from different studies.
A part holds a random share of what one study measured.

Series 1
Target: TAR DNA-binding protein 43, full length, His tag (TARDBP, Homo sapiens, UniProt Q13148, residues 1-414)
Method: RNA Bind-n-Seq
Form: RNA
Sample: in vitro
Concentration: 20 nM
Setting: 6-mer, flanks averaged, single round
Together with: 150 mM KCl
Baseline: input library
Reading: higher = stronger binding
Sequence | 6-mer enrichment (R)
AUGGUG | 1.5
CCCUAG | 0.679
UAUGGU | 0.857
UCUACU | 0.545
CGGGCG | 4.27
GCCGAA | 0.928
UGUGAC | 0.843
CAUGUU | 0.664
CUGGUG | 1.33
AUAAAA | 0.752
ACGUAC | 0.631
UCCCCA | 0.659
UUGCCG | 0.776
AGACCA | 0.691
UGUUUG | 1.04
ACGCUC | 0.593
AGCAAG | 1.02
UGGAGG | 3.67
GUGGAC | 1.5

Series 2
Target: Fragile X messenger ribonucleoprotein 1, C-terminal low-complexity region (Fmr1, Mus musculus, UniProt P35922)
Method: RNA Bind-n-Seq
Form: RNA
Sample: in vitro
Concentration: 200 nM
Setting: whole 134-nt RNA, ends assumed
Together with: 150 mM LiCl
Baseline: input library
Reading: higher = stronger binding
Library: 7-deaza-guanosine replaces G
Constant ends, left off below: GGGAGUUCUACAGUCCGACGAUC … UGGAAUUCUCGGGUGUCAAGG
Sequence | log2 enrichment
UGGGAGGUGGAUUUUGUUUAUUUUUUUAGCUCAUUUCCAGGGGUGGGAAUUUUUUUUUAUUAUGUGUCAUGAAUAAAGUUGUUUUUGAAA | -0.116
CAAGUCCUGUGCUACACAUCGUAUGUACCGAAUCGGCCCGGGGCCCGGCCCGGGGAAAGUAUUAUGUUACGCCGUUCGGAUCUGCACUUC | -0.668
GUCCUGUGCUACACAUCGUAUGUACCGAAUCAAAUUUUUUUAAACCCAAAUUUUUAAAAAAGUAUUAUGUUACGCCGUUCGGAUCUGCAC | -2.87
CAAGUCCUGUGCUACACAUCGUAUGUACCGAAUCGGAGGAAAAAGGAAAAAAAGGAAAGUAUUAUGUUACGCCGUUCGGAUCUGCACUUC | -0.128
ACCAUGCAGGUGGGCAUCUUUGGGAAGUGGGGCAAGGGGGGGAUAGGGAGGGGGGUAAAACUUUGGGAACAGGUGGUCCCAGGUCGUUUC | 1.41
CUCAAGUCCUGUGCUACACAUCGUAUGUACCGAAUCGGAAAAAGGAAAGGAGGAAAGUAUUAUGUUACGCCGUUCGGAUCUGCACUUCCA | -1.65
UGAAGACACAGCAUCCACCCGAUCUUCAUUCACUGUCCAAGACCUUAAACCUUUUACAGAAUAUGUGUUUAGGAUUCGCUGUAUGAAGGA | -1.65
UAACUUUAGAGGAGGAUCUGAUGGAGAUGGCAGUGGACGUGGAUUUGGGGAUGGCUAUAAUGGGUAUGGAGGAGGACCUGGAGGUGGCAA | 0.443
CGGUCAGACUUUGUGUUACAUAAAUUAACACUGUUCUCAGGUAAUGAGAGAUCCAAACACCAAGCGCUCCAGGGGCUUUGGGUUUGUCAC | -1.94
AAGUCCUGUGCUACACAUCGUAUGUACCGAAUCGGGAAAAGGGAAAAGGAAAAGGGAAAGUAUUAUGUUACGCCGUUCGGAUCUGCACUU | -0.618
GCAGGAAGUAAAAAAAAAUGGAAAUGCUUCGGAUAGUGGCAGGGGUGGGGGUUGCUAAGGAAAGGGUGGGAUGGGAGUGGGUAAAGAGUU | 1.43

Series 3
Target: Histone acetyltransferase KAT6A, both winged helices, GST fusion (KAT6A, Homo sapiens, UniProt Q92794, residues 1-181)
Method: protein binding microarray
Form: double-stranded DNA, one strand shown
Sample: in vitro
Concentration: not given
Setting: 8-mer, flanks averaged, mean of 2 arrays, mostly near background
Baseline: not given
Reading: higher = stronger binding
Target sequence (chain): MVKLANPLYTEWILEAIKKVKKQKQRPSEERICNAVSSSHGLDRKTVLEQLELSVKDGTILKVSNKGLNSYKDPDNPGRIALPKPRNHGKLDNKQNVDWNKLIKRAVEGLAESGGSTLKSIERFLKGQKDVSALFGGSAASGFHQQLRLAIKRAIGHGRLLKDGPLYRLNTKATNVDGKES
Sequence | E-score
ATGACTCA | -0.0395
GACGCTGC | 0.135
AATAGTGT | -0.0427
ATTGGATC | -0.0947
ATCCAGAC | -0.0602
AATACTGG | -0.185
AGTTCACC | 0.0963
GATCGTAA | -0.0422
GTAGATTA | 0.0709
ATATGAAT | -0.0684
GTTCAGCA | -0.292
CCCCTCAG | -0.157
GTCAAGAC | -0.0117
AAAAAGCC | 0.124
AACCTCTT | 0.0128
ATTCTAGA | -0.183
AGCACAGC | -0.0544
CACGACTG | 0.0295

Series 4
Target: Interferon regulatory factor 5, full length, phosphomimetic (IRF5, Homo sapiens, UniProt Q13568-2, residues 1-514, S451D/S453D/S456D/S462D)
Method: protein-binding microarray
Form: double-stranded DNA, one strand shown
Sample: in vitro
Concentration: 940 nM top
Setting: 60-bp whole probe
Together with: salmon DNA 0.4 mg/ml
Baseline: random background probes
Reading: higher = stronger binding
Constant ends, left off below: GCCTAGCAC … GTCTTGATTCGCTTGACGCTGCTG
Sequence | fitted relative affinity [z-score]
GACGATTTCGGGTATCGAGCCGTGCTA | 1.18
TCACATCTTGTTCCCAGACTGTGCTAG | 0.661
GACGATATCAGACTGGAGATGTGCTAG | -0.145
TCTGACCCCCTGCGCGGCAGGTGCTAG | -0.773
CTAGATCTCAGTATCGATTAGTGCTAG | 4.67
TTAGGCCTGGACACTGGGTTAGTGCTA | -0.458
TTGGGTATCGACACTGGGTTAGTGCTA | 4.17
TTAGGTTTCAGTCTCGATTAGTGCTAG | 8.25
GACGGTATCAACTTTCGGGACGTGCTA | 1.9
GACGTTATCCTTTTCCTGACGTGCTAG | 0.913
TTAGGACTGCTTATCTTTTAGTGCTAG | 0.0502
CCGGGTTTCACCATGTTGGCGTGCTAG | 4.04
GACGATCTCAGACTGGCGACGTGCTAG | -0.569
TTATTTTTTTTATTTATAAAGTGCTAG | 1.29
TTAGGTCTCGGTTTCGGGTAGTGCTAG | 7.46
TTTACTTTCTATCTCTGTTTGTGCTAG | 4.2

Series 5
Target: RNA binding protein fox-1 homolog 2, RRM domain, GST-SBP tag (RBFOX2, Homo sapiens, UniProt O43251-10, residues 100-194)
Method: RNA Bind-n-Seq
Form: RNA
Sample: in vitro
Concentration: 365 nM
Setting: natural RNA segment, single round, ends assumed
Baseline: no-protein control
Reading: higher = stronger binding
Constant ends, left off below: GGGAGUUCUACAGUCCGACGAUC … UGGAAUUCUCGGGUGCCAA
Residues (chain): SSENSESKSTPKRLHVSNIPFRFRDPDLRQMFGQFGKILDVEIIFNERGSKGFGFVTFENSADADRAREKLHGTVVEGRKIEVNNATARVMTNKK
Sequence | RBNS enrichment (R)
GAACCAGCGCCCCAUAGGCUAAGAUCUAUCAUUUACAGGUAGAAGUGGGGCCCGCACUCAGAACUGUGAGGAGGGUGGAGAGUGGUCCUGACCCUCAGUUCCCAGAGGAC | 0.716
UCUACAAGAUCUUCGUUAAGAGUCAAGCUGCCGGUCAGGAGUCUGACAUUUGAAUCGUGUUGUGAUUUACAAAAAAAAAAAAAAAAAACCCUUCUGGUAGAUUUUAAUGA | 0.891
GGUGGCCCUUGCAGUUCAGCACCACCCUAGUCCCUUCCCCUCCCUGGCUCCCAUGACCAUACUGAGGGACCAACUGGGCCCAAGACAGAUGCCCCAGAGCUGUUUAUGGC | 0.396
AGAAAGAUCUUUUUUUAUUUUUUUCAUAUUUGGCAAUGAUGUCAGCUCCAUUUUAAAAAUCUCCAAUAACCAGGUAAGAAAAGAAAGAAAAAAAUUAAGAAACAACAGGC | 0.759
AAUGGCUCCUUGAUGGACGGCACCCUCUUCGAUUCCAGGUACUCCCGCAACCACACCUACAAUACCUAUAUCGGGCAGGGUUACAUCAUCCCCGGGAUGGACCAGGGGCU | 0.273
UAUGUUGCCAGUGGUUUCACACAAAUUCCCUUGUAUUUAUUUGUUGAUUAAAUCAAGUGAGAAAGGUAAAGCAGUGUGUCUUCAGUUAUUUAAGGAACCUUAUGCUGUGU | 0.428
GAGUGCUAGGUAGGAAUGGCCACAGUUUGAAGAGCUAGAAAUAGCCUUAGGUCGGGCUUCUGUUAUGUGCUUUCCAGAAGCAGUUUUUACAACUGUAGGUAAGGUUGUAA | 1.07
UGCUCACACUUUCAUAGCGCUUGCUACGUGACAAGUACCGCUGUAAAUAAAUGCCUCAUGAAAACCACUUGCUUGCUCUUUGUAAGGACCCCGUGAAAGAUGCGCUGGUU | 2.36
ACUCAAAACACCUGUAUUUAAACCUUAAUAUGAAAAUCAUGCAAUUAAUAGUUACACAAGAUGUUUUCAUUACAAAAUAUGUACCUAUCUAUUGAUGGACUCUACAUCCU | 0.421
AUAUGUGUCCUUGACGUGCAAGCUUUGUAAAACCCCAUCCCCGCUUAGGUGCGAGGCAUCACCUUCUCACAAGUGUUUAGUUUCUUUUAACCACAAGUAUCAUUCUUGGG | 0.734
UUCUGAUAUAAACUGUCAAUAUUGCUUUUACCAUGUGUAAGAUUUACUUAGUAAUCACAGAUUUACCUAAAAUAAAAGGACCCGGGUUGCAGUGAUAUUUAGUUAAUGAU | 0.544
GGAGUUGGUGGGGGAGGGAUGGGUAUUAUAUAAAGAGACCCCUCCCCUUAUUUUGUGUUUUCCAUCCCUCUCCCUUAACAGGAUUGAAAUAAAACAUGCUUCUGUUUUUG | 0.479

Excerpt of the above (series 4):
Sequence | fitted relative affinity [z-score]
CTAGATCTCAGTATCGATTAGTGCTAG | 4.67
TTGGGTATCGACACTGGGTTAGTGCTA | 4.17
GACGATATCAGACTGGAGATGTGCTAG | -0.145
TTAGGTCTCGGTTTCGGGTAGTGCTAG | 7.46
TTAGGCCTGGACACTGGGTTAGTGCTA | -0.458
CCGGGTTTCACCATGTTGGCGTGCTAG | 4.04
TCTGACCCCCTGCGCGGCAGGTGCTAG | -0.773
GACGATCTCAGACTGGCGACGTGCTAG | -0.569
GACGATTTCGGGTATCGAGCCGTGCTA | 1.18
TTTACTTTCTATCTCTGTTTGTGCTAG | 4.2
TTAGGACTGCTTATCTTTTAGTGCTAG | 0.0502
TTATTTTTTTTATTTATAAAGTGCTAG | 1.29
